Experimental data of several laboratories.
Every numbered part comes from another study and shows a few of its results, in no order.
Sequence of UniProt O15294 (whole entry, looked up): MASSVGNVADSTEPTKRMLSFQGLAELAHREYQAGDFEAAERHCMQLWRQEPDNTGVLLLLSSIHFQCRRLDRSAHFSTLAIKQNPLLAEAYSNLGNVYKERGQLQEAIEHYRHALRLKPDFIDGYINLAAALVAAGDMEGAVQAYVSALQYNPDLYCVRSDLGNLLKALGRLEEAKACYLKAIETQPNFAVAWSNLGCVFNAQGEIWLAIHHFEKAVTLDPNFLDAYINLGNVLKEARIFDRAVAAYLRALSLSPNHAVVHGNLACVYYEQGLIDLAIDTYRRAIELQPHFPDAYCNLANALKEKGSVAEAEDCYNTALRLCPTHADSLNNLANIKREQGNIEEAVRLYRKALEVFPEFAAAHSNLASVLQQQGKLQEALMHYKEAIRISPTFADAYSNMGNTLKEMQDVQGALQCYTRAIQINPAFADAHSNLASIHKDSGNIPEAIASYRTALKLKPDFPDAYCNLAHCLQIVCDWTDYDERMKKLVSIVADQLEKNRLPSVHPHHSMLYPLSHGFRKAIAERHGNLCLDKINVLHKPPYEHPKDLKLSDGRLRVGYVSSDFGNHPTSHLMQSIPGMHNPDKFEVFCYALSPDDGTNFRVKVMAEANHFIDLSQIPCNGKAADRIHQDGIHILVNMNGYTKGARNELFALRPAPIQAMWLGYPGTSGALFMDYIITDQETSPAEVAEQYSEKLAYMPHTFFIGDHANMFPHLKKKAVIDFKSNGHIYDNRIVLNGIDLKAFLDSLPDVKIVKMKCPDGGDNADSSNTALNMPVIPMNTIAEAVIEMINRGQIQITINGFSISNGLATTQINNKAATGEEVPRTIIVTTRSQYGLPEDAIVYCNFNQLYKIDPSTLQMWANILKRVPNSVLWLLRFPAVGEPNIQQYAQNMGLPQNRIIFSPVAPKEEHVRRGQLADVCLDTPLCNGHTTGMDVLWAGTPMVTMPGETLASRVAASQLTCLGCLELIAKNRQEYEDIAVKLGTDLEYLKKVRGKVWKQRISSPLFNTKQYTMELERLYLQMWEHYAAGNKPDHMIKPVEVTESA

Set 1
Target: Sal-like protein 4, full length isoform B (SALL4, Homo sapiens, UniProt Q9UJQ4-2, residues 1-616)
Method: universal PBM
Form: double-stranded DNA, one strand shown
Sample: in vitro
Tested at: not given
Setting: 8-mer, flanks averaged, mean of replicates
Reading: higher = stronger binding
Strand	E-score
CAGGTGTC	-0.128
GACTTGCA	0.103
GCCCTGCC	-0.342
ATCAAATG	0.135
AAACCATC	0.0791
ATTCCCCA	-0.0842
ACTTTAGA	0.143
ACTCATTG	-0.00487

Set 2
Target: Phosphate system positive regulatory protein PHO4, full length, GST-tagged (PHO4, Saccharomyces cerevisiae, UniProt P07270, residues 1-312)
Sequence of UniProt P07270 (whole entry, looked up): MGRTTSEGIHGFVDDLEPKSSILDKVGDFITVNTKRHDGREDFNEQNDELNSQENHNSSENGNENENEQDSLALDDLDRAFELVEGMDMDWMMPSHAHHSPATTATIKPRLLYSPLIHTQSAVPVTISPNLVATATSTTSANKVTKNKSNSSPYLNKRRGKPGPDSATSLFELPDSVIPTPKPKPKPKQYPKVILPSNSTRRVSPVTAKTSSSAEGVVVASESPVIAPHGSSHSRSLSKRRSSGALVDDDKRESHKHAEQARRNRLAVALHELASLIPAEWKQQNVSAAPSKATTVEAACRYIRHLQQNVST
Method: competition protein-binding microarray
Form: double-stranded DNA, one strand shown
Sample: in vitro
Tested at: 2 µM
Setting: whole 60-bp probe, lowest competitor level
With: Cbf1 competitor, 0.05 µM
Reading: higher = stronger binding
Constant ends, left off below: … GTCTTGATTCGCTTGACGCTGCTG
Strand	fluorescence intensity [a.u.]
ACCTAGGACTACCAACACATGCAAGGATGCCAGTCT	7810
AAAGCGGTAATTTGGGTGGTGGGTGCAGATATCTAT	4320
CATACCCAACCTTGCGAGGTGGGTGAAGATATTTGT	3900
ATTTGTCAATGCCATCACGATGCAAGTCAGTGATGT	8490
CACATCCGGGTTCGTCACACGCGAAAGGCTTCTCAA	5510
AAGAGTATTATACAGCACGCAGCAGAACAGTTATAC	9180
TTTTGCTCAAACGGTCGCGTGCTAAGCGGAACGAGA	9090
GTAACGATTTACCATCACGTGGATTGTGATATAATT	15700

Set 3
Target: Histone acetyltransferase KAT6A, winged helix 1, GST fusion (KAT6A, Homo sapiens, UniProt Q92794, residues 1-85)
Method: protein binding microarray
Form: double-stranded DNA, one strand shown
Sample: in vitro
Tested at: not given
Setting: 8-mer, flanks averaged, mean of 2 arrays, mostly near background
Reference: not given
Reading: higher = stronger binding
Residues (chain): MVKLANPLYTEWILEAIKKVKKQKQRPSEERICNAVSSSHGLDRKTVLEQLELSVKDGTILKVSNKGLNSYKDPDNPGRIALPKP
Strand	E-score
AGGATCGA	-0.181
TAATTATA	-0.0898
AATAGTGC	0.17
CTCCTGCA	-0.222
CCGCGACA	0.291
TAGATGGA	-0.194
CTCTCAGA	-0.117
CTATAAGC	0.0769

Mixed results
Sequence	target	assay	system	how to read	measurement	result
DNKMHARNHQQHPH	UDP-N-acetylglucosamine--peptide N-acetylglucosaminyltransferase 110 kDa subunit (OGT, Homo sapiens, UniProt O15294)	binding, phage display NGS	peptide	reference: input library	minimum log2 enrichment ratio	3.08

For quick reference, copied from above (set 2):
Strand	fluorescence intensity [a.u.]
CATACCCAACCTTGCGAGGTGGGTGAAGATATTTGT	3900
CACATCCGGGTTCGTCACACGCGAAAGGCTTCTCAA	5510
